Assay results collected from several papers.
Parts stem from different laboratories: compare values within a part only.
Sequence of UniProt Q9Y3S1 (whole entry, looked up): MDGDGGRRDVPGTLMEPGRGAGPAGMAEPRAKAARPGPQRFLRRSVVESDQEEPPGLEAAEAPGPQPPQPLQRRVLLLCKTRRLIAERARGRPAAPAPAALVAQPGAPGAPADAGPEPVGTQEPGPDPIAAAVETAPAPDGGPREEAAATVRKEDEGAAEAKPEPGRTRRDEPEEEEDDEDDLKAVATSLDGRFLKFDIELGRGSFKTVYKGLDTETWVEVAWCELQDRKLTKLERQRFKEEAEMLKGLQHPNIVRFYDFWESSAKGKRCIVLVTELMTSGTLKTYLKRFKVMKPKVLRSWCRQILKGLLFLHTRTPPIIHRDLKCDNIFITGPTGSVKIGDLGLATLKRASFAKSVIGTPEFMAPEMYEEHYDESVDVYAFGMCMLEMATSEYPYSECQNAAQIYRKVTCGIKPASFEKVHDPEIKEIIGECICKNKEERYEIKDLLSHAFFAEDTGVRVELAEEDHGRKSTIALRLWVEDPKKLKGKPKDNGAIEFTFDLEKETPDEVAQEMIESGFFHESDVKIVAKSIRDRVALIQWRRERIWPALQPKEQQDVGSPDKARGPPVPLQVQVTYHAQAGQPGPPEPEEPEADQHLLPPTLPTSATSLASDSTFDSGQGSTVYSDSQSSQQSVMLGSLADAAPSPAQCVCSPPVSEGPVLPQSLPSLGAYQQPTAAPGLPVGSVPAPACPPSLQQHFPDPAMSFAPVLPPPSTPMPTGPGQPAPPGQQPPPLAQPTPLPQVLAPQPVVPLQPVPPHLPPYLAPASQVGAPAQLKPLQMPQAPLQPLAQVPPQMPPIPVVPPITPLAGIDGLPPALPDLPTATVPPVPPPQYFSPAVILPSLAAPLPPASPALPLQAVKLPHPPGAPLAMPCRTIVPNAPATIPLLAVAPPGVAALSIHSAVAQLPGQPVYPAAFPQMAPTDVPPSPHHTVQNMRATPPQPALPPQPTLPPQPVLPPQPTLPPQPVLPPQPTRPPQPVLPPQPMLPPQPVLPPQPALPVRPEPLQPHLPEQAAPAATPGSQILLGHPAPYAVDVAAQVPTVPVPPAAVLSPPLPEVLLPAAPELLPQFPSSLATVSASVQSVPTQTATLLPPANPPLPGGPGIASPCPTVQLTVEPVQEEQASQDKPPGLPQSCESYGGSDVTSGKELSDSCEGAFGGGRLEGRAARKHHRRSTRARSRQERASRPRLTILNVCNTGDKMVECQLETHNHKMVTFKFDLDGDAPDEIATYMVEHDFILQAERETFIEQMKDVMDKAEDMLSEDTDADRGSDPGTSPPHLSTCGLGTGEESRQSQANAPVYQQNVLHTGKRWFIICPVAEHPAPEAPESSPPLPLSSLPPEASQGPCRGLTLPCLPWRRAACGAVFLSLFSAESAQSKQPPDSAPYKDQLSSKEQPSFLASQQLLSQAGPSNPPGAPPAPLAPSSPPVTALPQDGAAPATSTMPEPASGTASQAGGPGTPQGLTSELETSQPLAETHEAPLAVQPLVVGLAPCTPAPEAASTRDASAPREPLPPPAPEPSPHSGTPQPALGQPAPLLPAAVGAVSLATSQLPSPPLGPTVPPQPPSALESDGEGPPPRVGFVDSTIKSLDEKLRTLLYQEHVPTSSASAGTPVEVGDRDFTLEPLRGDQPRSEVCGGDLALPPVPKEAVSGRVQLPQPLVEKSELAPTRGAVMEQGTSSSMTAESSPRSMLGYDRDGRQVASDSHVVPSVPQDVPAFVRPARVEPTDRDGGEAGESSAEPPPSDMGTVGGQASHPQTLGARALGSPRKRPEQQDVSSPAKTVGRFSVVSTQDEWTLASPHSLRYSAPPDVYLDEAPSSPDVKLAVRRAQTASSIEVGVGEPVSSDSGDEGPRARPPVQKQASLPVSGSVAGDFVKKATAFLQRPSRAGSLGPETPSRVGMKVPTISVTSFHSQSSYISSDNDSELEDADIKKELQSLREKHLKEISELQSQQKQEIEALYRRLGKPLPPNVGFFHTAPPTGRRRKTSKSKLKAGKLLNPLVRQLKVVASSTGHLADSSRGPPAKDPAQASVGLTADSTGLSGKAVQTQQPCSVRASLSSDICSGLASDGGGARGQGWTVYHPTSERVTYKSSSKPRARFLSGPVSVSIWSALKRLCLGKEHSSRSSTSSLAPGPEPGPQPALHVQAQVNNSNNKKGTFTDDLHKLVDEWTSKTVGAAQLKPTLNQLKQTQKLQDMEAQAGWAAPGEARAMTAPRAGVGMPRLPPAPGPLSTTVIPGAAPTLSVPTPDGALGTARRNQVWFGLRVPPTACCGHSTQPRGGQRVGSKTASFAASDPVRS

Block 1 — technique: protein-binding microarray; form: double-stranded DNA, one strand shown; sample: in vitro; concentration: 0.8 µM; setting: whole 60-bp probe, no competitor; reading: higher = stronger binding
Target: Centromere-binding protein 1, full length, N-terminal tag (CBF1, Saccharomyces cerevisiae, UniProt P17106, residues 1-351)
Sequence of UniProt P17106 (whole entry, looked up): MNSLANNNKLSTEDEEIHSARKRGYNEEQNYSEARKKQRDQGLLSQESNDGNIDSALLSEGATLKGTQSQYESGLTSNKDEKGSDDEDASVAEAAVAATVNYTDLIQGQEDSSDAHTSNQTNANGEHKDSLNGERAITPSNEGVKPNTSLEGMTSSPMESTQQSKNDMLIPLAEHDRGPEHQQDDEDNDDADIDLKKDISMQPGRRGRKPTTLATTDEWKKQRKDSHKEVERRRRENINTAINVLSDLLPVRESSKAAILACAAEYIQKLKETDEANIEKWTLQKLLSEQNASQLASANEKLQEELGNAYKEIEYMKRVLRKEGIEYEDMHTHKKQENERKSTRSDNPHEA
`GAATATTGAACCAATCACGACGCTTTTTCTCTTTAGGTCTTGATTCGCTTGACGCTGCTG` has a fluorescence intensity of 594 a.u.
With `CTAAGCGAGTCAGAGCACATGTTTAGACAATATTTCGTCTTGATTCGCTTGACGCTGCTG` the fluorescence intensity was 808 a.u.
`TGTACGAAGCTATATCATGTGTGTATAGTAGTTAGGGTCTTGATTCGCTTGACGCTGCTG` has a fluorescence intensity of 629 a.u.
For `CTAAGTAATAGCGATCACGTGATTATCCGTGGATTCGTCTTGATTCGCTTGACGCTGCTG`, the fluorescence intensity was 40400 a.u.
The fluorescence intensity of `CTATTGTTGACTTACCACATGTGCAGCCGCCTTTTCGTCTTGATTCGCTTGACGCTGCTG` is reported as 868 a.u.
With `GAAATAATCGGTCACCTCGTGTGTCGTGATAAATAGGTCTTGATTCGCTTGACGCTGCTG` the fluorescence intensity was 972 a.u.
For `GAAACATTACAATCTCTGATGCTTTCACGTAGATAGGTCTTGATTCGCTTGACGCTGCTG`, the fluorescence intensity was 554 a.u.
With `GAATCCATTTCATCGTTCGTGACACTTATAAACTAGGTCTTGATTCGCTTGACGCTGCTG` the fluorescence intensity was 675 a.u.

Block 2 — technique: DNA-protein interaction ELISA; form: double-stranded DNA, one strand shown; sample: in vitro, bacterial lysate; concentration: not given; setting: whole dsDNA probe, crude lysate protein; reference: highest signal in screen; reading: higher = stronger binding
Target: Probable WRKY transcription factor 33, N-terminal DNA-binding domain (WRKY33, Arabidopsis thaliana, UniProt Q8S8P5, residues 169-264)
Target sequence (chain): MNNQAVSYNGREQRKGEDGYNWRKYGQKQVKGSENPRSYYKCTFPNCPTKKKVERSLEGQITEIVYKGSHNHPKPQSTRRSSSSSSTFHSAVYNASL
`AAAAAAATATTTGAGCTAGGTTATCAAAAA` gave a relative absorbance of 13.5 % of maximum.
For `AAAAAAAAGCTTCGGAGTCTTGAGAAAAAA`, the relative absorbance was 25 % of maximum.
`AAAAAAAATACTGCGCACTTGCACTCAAAA` has a relative absorbance of 21.5 % of maximum.
For `AAAAAAGCGTAAGCCTTGACAGTCGTAAAA`, the relative absorbance was 23.7 % of maximum.
For `AAAAAAATGCGCCCTTTCTGACATAAAAAA`, the relative absorbance was 15.4 % of maximum.
`AAAAAATCGCACTGCCGCCGATGGCTAAAA` has a relative absorbance of 19.9 % of maximum.
`AAAAAAGCTAGTGCTGCCACCAACGTAAAA` has a relative absorbance of 18.6 % of maximum.
`AAAAAACTGGTGTATCTCCTCAATTAAAAA` has a relative absorbance of 22.3 % of maximum.

Mixed results
The remaining activity of `CN1CCN(c2ccc3nc(-c4c(N)c5c(F)cccc5[nH]c4=O)[nH]c3c2)CC1` is reported as 99.9% (Serine/threonine-protein kinase WNK2 (WNK2, Homo sapiens, UniProt Q9Y3S1); enzyme activity, inhibitor; 0.5 µM; reference: control).
The fold induction of `PhoQ, residues 284 288 289 292 302 303 STVVAA` is reported as 1.04 (PhoP, residues 12 14 15 18 19 HEGLL (Escherichia coli, UniProt P23836); Sort-seq, refers to: YFP reporter; E. coli; PhoQ-PhoP variant library, with: 10 µM Mg2+; reference: high Mg2+ state, higher = stronger signaling).
